Measured values of several laboratories.
Protocols differ between the studies behind these lines. ± marks the error that the study gave.
GLP1R: Glucagon-like peptide 1 receptor (GLP1R, Homo sapiens, UniProt P43220)
DRD4: D(4) dopamine receptor (DRD4, Homo sapiens, UniProt P21917)
Sequence of UniProt P21917 (whole entry, looked up): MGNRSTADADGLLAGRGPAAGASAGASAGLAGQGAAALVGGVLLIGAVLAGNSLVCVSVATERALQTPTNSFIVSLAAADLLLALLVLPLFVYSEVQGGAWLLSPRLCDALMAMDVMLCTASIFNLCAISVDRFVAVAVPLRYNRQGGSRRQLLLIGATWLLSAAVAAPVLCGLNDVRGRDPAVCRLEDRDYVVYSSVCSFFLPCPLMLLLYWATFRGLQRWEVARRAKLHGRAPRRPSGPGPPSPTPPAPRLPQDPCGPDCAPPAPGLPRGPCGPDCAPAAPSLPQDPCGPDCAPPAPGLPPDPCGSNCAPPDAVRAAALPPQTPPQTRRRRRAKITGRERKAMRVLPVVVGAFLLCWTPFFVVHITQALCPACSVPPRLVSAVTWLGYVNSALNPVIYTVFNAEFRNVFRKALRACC
HTR1D: 5-hydroxytryptamine receptor 1D (HTR1D, Homo sapiens, UniProt P28221)
Sequence of UniProt P28221 (whole entry, looked up): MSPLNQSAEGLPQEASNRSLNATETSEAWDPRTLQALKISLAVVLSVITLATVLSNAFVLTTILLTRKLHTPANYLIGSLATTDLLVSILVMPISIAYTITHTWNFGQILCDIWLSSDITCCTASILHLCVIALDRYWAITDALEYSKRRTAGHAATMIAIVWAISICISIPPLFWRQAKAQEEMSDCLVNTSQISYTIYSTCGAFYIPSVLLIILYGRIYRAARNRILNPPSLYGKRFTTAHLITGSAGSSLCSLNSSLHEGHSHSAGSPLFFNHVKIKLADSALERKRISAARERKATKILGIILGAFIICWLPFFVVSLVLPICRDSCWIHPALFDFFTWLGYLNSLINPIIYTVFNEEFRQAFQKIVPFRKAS
Sequence of UniProt P28335 (whole entry, looked up): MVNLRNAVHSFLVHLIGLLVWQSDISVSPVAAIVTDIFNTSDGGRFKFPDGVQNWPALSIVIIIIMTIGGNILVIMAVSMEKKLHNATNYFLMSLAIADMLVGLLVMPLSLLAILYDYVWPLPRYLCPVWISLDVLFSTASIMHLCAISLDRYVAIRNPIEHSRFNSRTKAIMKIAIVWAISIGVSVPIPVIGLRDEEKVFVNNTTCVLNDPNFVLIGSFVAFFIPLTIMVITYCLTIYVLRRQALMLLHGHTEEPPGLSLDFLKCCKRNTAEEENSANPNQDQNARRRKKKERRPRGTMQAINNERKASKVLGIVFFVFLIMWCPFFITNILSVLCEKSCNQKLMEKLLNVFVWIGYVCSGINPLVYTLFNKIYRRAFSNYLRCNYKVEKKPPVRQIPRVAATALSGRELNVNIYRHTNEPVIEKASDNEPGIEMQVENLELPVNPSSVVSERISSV
Sequence of UniProt P08253 (whole entry, looked up): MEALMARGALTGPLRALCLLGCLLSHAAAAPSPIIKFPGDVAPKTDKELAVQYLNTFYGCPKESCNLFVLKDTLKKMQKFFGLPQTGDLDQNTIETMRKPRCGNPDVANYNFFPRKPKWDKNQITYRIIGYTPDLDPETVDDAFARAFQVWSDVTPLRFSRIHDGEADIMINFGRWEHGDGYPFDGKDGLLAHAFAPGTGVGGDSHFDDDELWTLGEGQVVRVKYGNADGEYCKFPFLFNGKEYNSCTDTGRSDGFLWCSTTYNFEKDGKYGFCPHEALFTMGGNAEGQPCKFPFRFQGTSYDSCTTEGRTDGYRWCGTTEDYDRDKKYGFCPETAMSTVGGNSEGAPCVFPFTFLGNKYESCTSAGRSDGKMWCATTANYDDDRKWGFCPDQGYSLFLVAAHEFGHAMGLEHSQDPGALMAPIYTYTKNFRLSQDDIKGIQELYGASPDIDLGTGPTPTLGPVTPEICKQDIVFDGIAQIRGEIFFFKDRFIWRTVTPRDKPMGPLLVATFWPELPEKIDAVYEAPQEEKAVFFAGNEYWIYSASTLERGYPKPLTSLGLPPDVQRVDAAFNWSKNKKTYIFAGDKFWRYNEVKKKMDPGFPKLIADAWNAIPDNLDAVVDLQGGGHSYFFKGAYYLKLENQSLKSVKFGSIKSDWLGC
Sequence of UniProt P25021 (whole entry, looked up): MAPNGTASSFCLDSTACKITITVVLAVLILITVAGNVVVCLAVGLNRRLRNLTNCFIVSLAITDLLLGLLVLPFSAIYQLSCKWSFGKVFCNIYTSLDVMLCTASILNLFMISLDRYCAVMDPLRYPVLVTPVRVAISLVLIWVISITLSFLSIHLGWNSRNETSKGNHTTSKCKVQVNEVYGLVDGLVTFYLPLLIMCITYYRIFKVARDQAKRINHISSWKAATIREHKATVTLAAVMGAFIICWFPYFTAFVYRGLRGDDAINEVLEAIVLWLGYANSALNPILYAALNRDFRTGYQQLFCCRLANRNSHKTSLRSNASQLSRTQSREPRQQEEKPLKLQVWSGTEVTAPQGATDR
Sequence of UniProt Q969R2 (whole entry, looked up): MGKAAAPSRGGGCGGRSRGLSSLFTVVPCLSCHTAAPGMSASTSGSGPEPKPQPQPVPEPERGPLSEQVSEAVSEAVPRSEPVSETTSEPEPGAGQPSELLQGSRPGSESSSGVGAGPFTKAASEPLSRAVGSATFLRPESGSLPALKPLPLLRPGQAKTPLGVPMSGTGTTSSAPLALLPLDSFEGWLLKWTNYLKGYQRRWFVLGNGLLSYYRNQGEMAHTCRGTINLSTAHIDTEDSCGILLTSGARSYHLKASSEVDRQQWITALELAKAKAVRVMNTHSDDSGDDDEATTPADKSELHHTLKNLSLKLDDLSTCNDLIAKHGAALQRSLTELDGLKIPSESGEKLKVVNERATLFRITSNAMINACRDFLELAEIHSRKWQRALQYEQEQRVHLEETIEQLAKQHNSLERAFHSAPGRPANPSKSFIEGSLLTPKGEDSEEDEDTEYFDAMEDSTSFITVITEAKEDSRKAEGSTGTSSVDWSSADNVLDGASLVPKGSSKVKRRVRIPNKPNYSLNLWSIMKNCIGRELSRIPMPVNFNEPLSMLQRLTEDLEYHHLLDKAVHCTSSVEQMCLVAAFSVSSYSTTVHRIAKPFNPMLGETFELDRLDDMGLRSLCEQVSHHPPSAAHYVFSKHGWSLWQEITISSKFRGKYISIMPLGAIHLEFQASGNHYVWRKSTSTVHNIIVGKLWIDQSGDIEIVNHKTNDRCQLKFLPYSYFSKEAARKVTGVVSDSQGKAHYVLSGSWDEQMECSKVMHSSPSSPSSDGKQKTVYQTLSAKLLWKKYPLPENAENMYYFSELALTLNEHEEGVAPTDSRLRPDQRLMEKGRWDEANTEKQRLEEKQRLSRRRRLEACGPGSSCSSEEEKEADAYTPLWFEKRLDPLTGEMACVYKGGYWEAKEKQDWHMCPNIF
Sequence of UniProt Q9JYL2 (whole entry, looked up): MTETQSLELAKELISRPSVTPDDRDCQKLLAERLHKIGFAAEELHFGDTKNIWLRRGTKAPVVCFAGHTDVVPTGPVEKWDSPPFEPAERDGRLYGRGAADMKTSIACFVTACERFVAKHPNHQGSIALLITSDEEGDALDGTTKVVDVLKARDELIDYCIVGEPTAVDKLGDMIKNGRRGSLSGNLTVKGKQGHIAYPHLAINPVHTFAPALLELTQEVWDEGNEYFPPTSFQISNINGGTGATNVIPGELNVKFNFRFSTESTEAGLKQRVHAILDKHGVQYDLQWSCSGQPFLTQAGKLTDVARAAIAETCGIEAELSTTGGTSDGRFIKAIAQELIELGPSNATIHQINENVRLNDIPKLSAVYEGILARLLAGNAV

CC[C@H](C)[C@H](NC(=O)[C@H](Cc1ccccc1)NC(=O)[C@H](CCC(=O)O)NC(=O)[C@H](CCCNC(=N)N)NC(=O)[C@H](C)NC(=O)[C@H](C)NC(=O)[C@H](CCC(N)=O)NC(=O)[C@H](CCC(=O)O)NC(=O)[C@H](CCC(=O)O)NC(=O)[C@H](CC(C)C)NC(=O)[C@H](Cc1ccc(O)cc1)NC(=O)[C@H](CO)NC(=O)[C@H](CO)NC(=O)[C@H](CCCCNc1c(NCCCCCN(O)C(=O)CCC(=O)NCCCCCN(O)C(=O)CCC(=O)NCCCCCN(O)C(C)=O)c(=O)c1=O)NC(=O)[C@H](CC(=O)O)NC(=O)[C@H](CO)NC(=O)[C@@H](NC(=O)[C@H](Cc1ccccc1)NC(=O)[C@@H](NC(=O)CNC(=O)[C@H](CCC(=O)O)NC(=O)[C@H](C)NC(=O)CCc1cnc[nH]1)[C@@H](C)O)[C@@H](C)O)C(=O)N[C@@H](C)C(=O)N[C@@H](Cc1c[nH]c2ccccc12)C(=O)N[C@@H](CC(C)C)C(=O)N[C@H](C(=O)N[C@@H](CCCCNc1c(NCCCCCN(O)C(=O)CCC(=O)NCCCCCN(O)C(=O)CCC(=O)NCCCCCN(O)C(C)=O)c(=O)c1=O)C(=O)NCC(=O)N[C@@H](CCCNC(=N)N)C(=O)N[C@@H](CCCCNC(=O)COCCOCCNC(=O)COCCOCCNC(=O)CC[C@H](NC(=O)CCCCCCCCCCCCCCCCC(=O)O)C(=O)O)C(=O)O)C(C)C — EC50 (GLP1R; cAMP reporter gene, agonist, CRE luciferase; BHK; with Zr, 1% HSA): 2.7 nM
C[C@H](CS)C(=O)N1CCC[C@H]1C(=O)O — Ki (Succinyl-diaminopimelate desuccinylase (dapE, Neisseria meningitidis serogroup B, UniProt Q9JYL2); enzyme activity, competitive inhibitor): 2800 nM
Cc1cccc(C)c1N1C(=O)CNC2(CCN(C)CC2)C1=O — Ki (Histamine H2 receptor (HRH2, Homo sapiens, UniProt P25021); binding): > 10000 nM
O[C@H](CCCN1CCC(O)(c2ccc(Cl)cc2)CC1)c1ccc(F)cc1 — Ki (DRD4): 263 ± 48.6 nM
COc1cc2c3c(c1OC)-c1c(cccc1OC)CC3N(C)CC2 (racemic) — Ki (5-hydroxytryptamine receptor 2C (HTR2C, Homo sapiens, UniProt P28335); radioligand binding): 2130 nM
CC[C@H](C)[C@H](NC(=O)[C@H](Cc1ccccc1)NC(=O)[C@H](CCC(=O)O)NC(=O)[C@H](CCCNC(=N)N)NC(=O)[C@H](C)NC(=O)[C@H](C)NC(=O)[C@H](CCC(N)=O)NC(=O)[C@H](CCCCNc1c(NCCCCCN(O)C(=O)CCC(=O)NCCCCCN(O)C(=O)CCC(=O)NCCCCCN(O)C(C)=O)c(=O)c1=O)NC(=O)[C@H](CCC(=O)O)NC(=O)[C@H](CC(C)C)NC(=O)[C@H](Cc1ccc(O)cc1)NC(=O)[C@H](CO)NC(=O)[C@H](CO)NC(=O)[C@@H](NC(=O)[C@H](CC(=O)O)NC(=O)[C@H](CO)NC(=O)[C@@H](NC(=O)[C@H](Cc1ccccc1)NC(=O)[C@@H](NC(=O)CNC(=O)[C@H](CCC(=O)O)NC(=O)[C@H](C)NC(=O)CCc1cnc[nH]1)[C@@H](C)O)[C@@H](C)O)C(C)C)C(=O)N[C@@H](C)C(=O)N[C@@H](Cc1c[nH]c2ccccc12)C(=O)N[C@@H](CC(C)C)C(=O)N[C@H](C(=O)N[C@@H](CCCCNc1c(NCCCCCN(O)C(=O)CCC(=O)NCCCCCN(O)C(=O)CCC(=O)NCCCCCN(O)C(C)=O)c(=O)c1=O)C(=O)NCC(=O)N[C@@H](CCCNC(=N)N)C(=O)N[C@@H](CCCCNC(=O)COCCOCCNC(=O)COCCOCCNC(=O)CC[C@H](NC(=O)CCCCCCCCCCCCCCCCC(=O)O)C(=O)O)C(=O)O)C(C)C — EC50 (GLP1R; cAMP reporter gene, agonist, CRE luciferase; BHK; with Zr, 0% HSA): 0.011 nM
C[C@H]1CN(c2n[nH]c3nc(N[C@H]4CC[C@H](NS(=O)(=O)CCC(F)(F)F)CC4)ncc23)CCO1 — relative abundance (Tyrosine-protein kinase SYK (SYK, Homo sapiens, UniProt P43405); inhibitor, Kinobeads competition profiling; 0.16 µM; relative to: vehicle): 1.03
N[C@@H](CS)C(=O)O — Ki (SclA protein (Enterococcus faecalis, UniProt Q831E3, H100D)): 620000 ± 70000 nM
COc1cc([C@@H]2c3cc4c(cc3[C@@H](O[C@@H]3O[C@@H]5CO[C@@H](C)O[C@H]5[C@H](O)[C@H]3O)[C@H]3COC(=O)[C@H]23)OCO4)cc(OC)c1O — Ki (ATP-binding cassette sub-family C member 2 (ABCC2, Homo sapiens, UniProt Q92887); inhibitor; pH 7.5): 17900 ± 9200 nM
COc1cc(Nc2ncc(F)c(Nc3ccc4c(n3)NC(=O)C(C)(C)O4)n2)cc(OC)c1OC — IC50 (72 kDa type IV collagenase (MMP2, Homo sapiens, UniProt P08253); metalloproteinase-2): > 10000 nM
COc1cc2c(cc1OC)CN(CCc1ccc(NC(=O)c3cccc4c(=O)c5cccc(OC)c5[nH]c34)cc1)CC2 — Ki (HTR1D; binding): 225 nM
COc1ccc(N=Nc2ccc3[nH]cc(CCN(C)C)c3c2)cc1 — Ki (HTR1D; radioligand binding): 3.47 nM
C[S+]([O-])C[C@H]1[C@H]2CC[C@@]3(CC[C@H]4[C@@](C)(CCC[C@@]4(C)C(=O)O)[C@@H]3C2)[C@@H]1O (stereo partly shown) — Ki (Oxysterol-binding protein 2 (OSBP2, Homo sapiens, UniProt Q969R2); [3H]-25-hydroxycholesterol binding, competitive inhibitor): > 100000 nM
CN[C@@H]1Cc2cccc3[nH]c(=O)n(c23)C1 — Ki (DRD4; binding): 1610 ± 297 nM
CN1CC[C@@H](c2c(O)cc(O)c3c(=O)cc(-c4ccc(C(F)(F)F)cc4Cl)oc23)[C@@H]1CO — patients with adverse event (measured: Neutropenia; B-cell malignancies; oral, 150 mg, intermittent dosing): 0%
Cc1cccc(C)c1N1C(=O)[C@H](CO)NC2(CCN(C)CC2)C1=O — Ki (DRD4; binding): > 10000 nM

A few entries again:
CN[C@@H]1Cc2cccc3[nH]c(=O)n(c23)C1 — Ki (DRD4; binding): 1610 ± 297 nM
CN1CC[C@@H](c2c(O)cc(O)c3c(=O)cc(-c4ccc(C(F)(F)F)cc4Cl)oc23)[C@@H]1CO — patients with adverse event (measured: Neutropenia; B-cell malignancies; oral, 150 mg, intermittent dosing): 0%
